Experimental data collected from several papers.
Values joined by “and” are separate records of one study, mostly repeats; a detail may differ. ± marks the error that the study gave.
Dehaloperoxidase B ferric: Dehaloperoxidase B, ferric (Amphitrite ornata, UniProt Q9NAV7)
MT-CYB/UQCRFS1: MT-CYB/UQCRFS1 (Homo sapiens, UniProt P00156+P47985)
KEAP1 Kelch domain: Kelch-like ECH-associated protein 1, Kelch domain (KEAP1, Homo sapiens, UniProt Q14145)

| Structure (SMILES) | target | test | test system | setting | scale | quantity | result |
| --- | --- | --- | --- | --- | --- | --- | --- |
| O=C(O)[C@@H]1CCCN1c1ncnc2[nH]cnc12 (racemic) | YTHDF2 (Homo sapiens, UniProt Q9Y5A9) | binding, affinity selection mass spectrometry | – | – | reference: other proteins in batch | log fold enrichment | 0.121 |
| CC(C)(O)c1ccccc1CC[C@@H](SCC1(CC(=O)O)CC1)c1cccc(/C=C/c2ccc3ccc(Cl)cc3n2)c1 | Cysteinyl leukotriene receptor 1 (Mus musculus, UniProt Q99JA4) | item: cysteinyl leukotrienes | female mice | intraperitoneal, 30 mg/kg | – | BAL fluid CysLT level | inhibited |
| O=C1C=Nc2ccc(Br)cc21 | Dehaloperoxidase B ferric | product, HPLC | – | 5 min, pH 7, 25 °C, enzyme 10 µM, added: 5-bromoindole and H2O2 500 µM each | – | product formed | 118 M |
| Cc1cc(CSC(=N)N)c(C)cc1CSC(=N)N | Protein lin-28 homolog A (Mus musculus, UniProt Q8K3Y3) | – | – | – | – | Hill slope | -1.9 |
| CCC1(O)CCCN(C(=O)c2ccc(-c3ccc(F)c(NC(=O)CCl)c3)cc2)C1 (centres unmarked) | DNA dC->dU-editing enzyme APOBEC-3A (Homo sapiens, UniProt P31941) | covalent modifier, intact protein mass spectrometry, item: adduct +26691 Da | – | 250 µM, 3 h, 10-fold molar excess | – | protein adduct | 19% |
| CN1CCN(c2cc(-c3ccncc3)c(-c3ccc4ccccc4c3)nn2)CC1 | C3AR1 (Homo sapiens, UniProt Q16581) | agonist, FLIPR | – | 12.5 µM | – | activation | 2.6% |
| CC1(C)C(N(O)C(=O)Nc2ccc(Cl)cc2)N(c2ccc(Cl)cc2)C(=O)N1CC(=O)N/N=C/C=C/c1ccc([N+](=O)[O-])o1 (centres unmarked) | Protein transport protein Sec61 subunit alpha isoform 1 (Homo sapiens, UniProt P61619) | Sec61-dependent translocation, inhibitor, item: CD4 signal peptide-FLuc reporter | HEK293 | concentration not given, 6 h | – | FLuc/RLuc ratio | 0.0982 |
| NC(=O)NOCCCCCCCCCCCCCCCC[P+](c1ccccc1)(c1ccccc1)c1ccccc1.O=C([O-])C(F)(F)F | MT-CYB/UQCRFS1 | complex III-dependent respiration, Seahorse XF96 | HCT-116 | 0.5 µM, 24 h | reference: control | oxygen consumption rate | 79.4% |
| CC[C@H](C)[C@H](NC(=O)[C@@H]1CCCN1C(=O)[C@H](CC(C)C)NC(=O)[C@H](Cc1ccccc1)NC(=O)[C@H](CCC(=O)O)NC(=O)CNC(=O)[C@@H](NC(=O)[C@H](CCC(=O)O)NC(=O)[C@@H]1CCCN1C(=O)[C@H](CC(=O)O)NC(=O)[C@H](CC(C)C)NC(=O)[C@H](CCC(N)=O)NC(=O)[C@H](CC(C)C)NC(=O)[C@H](CCC(N)=O)NC(=O)[C@H](C)NC(=O)[C@H](Cc1ccccc1)NC(C)=O)[C@@H](C)O)C(=O)N[C@@H](CCC(N)=O)C(=O)N1CCC[C@H]1C(=O)N[C@@H](C)C(=O)N[C@@H](CCC(N)=O)C(N)=O | KEAP1 Kelch domain | binding, ITC | – | pH 7, 298.15 K | – | TΔS | -5.37 kcal/mol |
| CCCC[C@H]1C(=O)N(C)[C@@H](CCCC)C(=O)N[C@@H](CCCCNC(=O)CN2CCN(CC(=O)O)CCN(CC(=O)O)CC2)C(=O)N[C@H](C(=O)NCC(N)=O)CSCC(=O)N[C@@H](Cc2ccc(O)cc2)C(=O)N(C)[C@@H](C)C(=O)N[C@@H](CC(N)=O)C(=O)N2CCC[C@H]2C(=O)N[C@@H](Cc2c[nH]cn2)C(=O)N[C@@H](CCC(=O)O)C(=O)N2C[C@H](O)C[C@H]2C(=O)N[C@@H](Cc2c[nH]c3ccccc23)C(=O)N[C@@H](CO)C(=O)N[C@@H](Cc2cn(CC(=O)O)c3ccccc23)C(=O)N1C [gallium-68 labelled] | CD274 (Homo sapiens, UniProt Q9NZQ7) | – | C6661 | 60 min | – | cell uptake | 4.71% |
| CC(=C/C(=O)O)/C=C/C=C(\C)C1C=C2C(C)(C)CCCC2(C)O1 (centres unmarked) | Rhodopsin (RHO, Homo sapiens, UniProt P08100, T17M) | ER retention, immunostaining co-localization, item: opsin with calnexin | COS-7 transfected T17M | 10.00 µM | – | Pearson correlation coefficient | 0.5 |
| CCc1cnn2c(NCc3ccc[n+]([O-])c3)cc(N3CCCC[C@H]3CCO)nc12 | BRD4 (Homo sapiens, UniProt O60885) | 19F NMR, item: tyrosine 118 | – | 94 µM | reference: free protein | chemical shift change | -0.009 ppm |
| CCn1c(-c2nc3cc(C(=O)N4CCC[C@@H](N)C4)cc(OC)c3n2C)cc2cccnc21 | PADI3 (Homo sapiens, UniProt Q9ULW8) | enzyme activity, cell lysate | HEK293 expressing PADI3 | 100 µM, added: calcium 2 mM | – | citrullination | no effect |
| CCOCc1nc(O)c(-c2nnc(Cc3ccc(Cl)cn3)o2)c(O)c1-c1c(OC)cccc1OC | Apelin receptor (APLNR, Homo sapiens, UniProt P35414) | binding | – | – | – | residence time | 15.5 ± 2.49 min |
| O=C(COP(=O)(O)O)[C@@H](O)[C@H](O)[C@H](O)COP(=O)(O)O | Gem-associated protein 5 (Homo sapiens, UniProt Q8TEQ6) | thermal proteome profiling, item: GEMIN5 | HepG2 cell lysate | concentration not given, 57 over 37 °C | reference: compound over control | thermal stability ratio | 0.636 and 0.389 and 0.5 |
| NC(=O)NO | MT-CYB/UQCRFS1 | complex III-dependent respiration, Seahorse XF96 | HCT-116 | 10 µM, 24 h | reference: control | oxygen consumption rate | 94.1 ± 5.76% |
| O=c1ccn([C@@H]2O[C@H](COP(=O)(O)OP(=O)(O)O)[C@@H](O)[C@H]2O)c(=O)[nH]1 | ABO (Homo sapiens, UniProt P16442, G235S/G268A/L266M/R176G/W181M) | methyl-TROSY NMR titration lineshape | – | mutant presaturated with H-disaccharide | – | koff | 560 ± 10 s⁻¹ |
| NC(=O)NOCCCCCCCCCCCCCCCCCCCC[P+](c1ccccc1)(c1ccccc1)c1ccccc1.O=C([O-])C(F)(F)F | MT-CYB/UQCRFS1 | complex III-dependent respiration, Seahorse XF96 | HCT-116 | 5 µM, 24 h | reference: control | oxygen consumption rate | 49% |
| CCN(O)N=Nc1ccc(S(=O)(=O)Nc2cc(C)on2)cc1 | α-glucosidase, rat intestine | enzyme activity | – | 60 µg/mL, added: 4-nitrophenyl α-D-glucopyranoside | – | inhibition | 37.5 ± 1.25% |
| Nc1nc2c(ncn2[C@@H]2O[C@H](COP(=O)(O)O)[C@@H](O)[C@H]2O)c(=O)[nH]1 | GUK1 (Homo sapiens, UniProt Q16774, E72A) | enzyme activity, NADH-coupled | – | 500 µM | – | reaction rate | 0.303 s⁻¹ and 0.27 s⁻¹ and 0.52 s⁻¹ |
| CC[C@@H]1[C@H](F)C(=O)N[C@@H]1COc1nccc2cc(C(N)=O)c(OC)cc12 | CAMK4 (Homo sapiens, UniProt Q16566) | ATP-site probe binding, ActivX profiling | THP-1 cell lysate | 0.2 mM, Lys2 site | – | inhibition | -4.7% |
| O=c1nc(SCc2ccc(C(F)(F)F)cc2)nc(SCc2csc3ccc(Cl)cc23)[nH]1 | TOP2A (Homo sapiens, UniProt P11388) | DNA relaxation | – | 15.6 µM | – | mean relaxed DNA | 0.3% |
| Nc1ncnc2c1ncn2[C@@H]1O[C@H](COP(=O)(O)CP(=O)(O)OP(=O)(O)O)[C@@H](O)[C@H]1O | P2X purinoceptor 1 (P2RX1, Homo sapiens, UniProt P51575, R292A) | saturation binding | HEK293 | 13 nM | – | specific binding | 30.5 CCPM and 52 CCPM |
| O=C(O)c1ccc(Nc2ncc3c(n2)-c2ccc(Cl)cc2C(c2c(F)cccc2F)=NC3)cc1 | NEK7(h) | kinase activity | – | 1 µM | – | remaining activity | 99% |
| Cc1ccc(N(O)N=Nc2ccc(S(=O)(=O)Nc3onc(C)c3C)cc2)cc1 | α-glucosidase, rat intestine | enzyme activity | – | 240 µg/mL, added: 4-nitrophenyl α-D-glucopyranoside | – | inhibition | 40 ± 0.16% |
| Nc1ncnc2c1ncn2[C@@H]1O[C@H](COP(=O)(O)OP(=O)(O)OP(=O)(O)O)[C@@H](O)[C@H]1O | P2X purinoceptor 7 (P2rx7, Rattus norvegicus, UniProt Q64663) | ion current, agonist, two-electrode voltage clamp | Xenopus laevis oocytes | 11 µM | reference: highest concentration response | normalized current | 0.11 and 0.16 and 0.05 |
| CC(=O)N[C@@H](C)C(=O)N[C@@H](CC(N)=O)C(=O)NCC(=O)N[C@@H](CC(N)=O)C(=O)N[C@@H](C)C(=O)N[C@@H](CC(N)=O)C(=O)N[C@@H](CCC(=O)O)C(=O)N[C@@H](CCC(=O)O)C(=O)N[C@@H](CC(N)=O)C(=O)NCC(=O)N[C@@H](CCC(=O)O)C(=O)N[C@@H](CCC(N)=O)C(=O)N[C@@H](CCC(=O)O)C(=O)N[C@@H](C)C(=O)N[C@@H](CC(=O)O)C(=O)N[C@@H](CC(N)=O)C(=O)N[C@@H](CCC(=O)O)C(=O)N[C@H](C(=O)N[C@@H](CC(=O)O)C(N)=O)C(C)C | KEAP1 Kelch domain | binding, ITC | – | pH 7, 298.15 K | – | ΔH | -17.53 ± 0.093 kcal/mol |
| O=C1Nc2ccc(Br)cc2C1O (centres unmarked) | Dehaloperoxidase B ferric | product, HPLC | – | added: 5-bromoindole 500 µM, H2O2 50 µM | – | share of total products | 8.7% |
| NCCCC(=O)O | SLC6A6 (Homo sapiens, UniProt P31641, L306A) | binding, microscale thermophoresis | – | 61 nM, room temperature, added: 50 nM labelled protein | higher = more binding | normalised MST signal | -0.0944 |
